Experimental data collected from several papers.
Numbered parts are unrelated; each lists some results of a single study. Changes are numbered by the printed parent chain.

Study 1 — method: protein-binding microarray; form: hairpin DNA; sample: in vitro; tested at: not given; baseline: not given; reading: higher = stronger binding
Target: Microphthalmia-associated transcription factor, full length (MITF, Homo sapiens, UniProt O75030-10, residues 1-413)
Setting: whole hairpin DNA, median over replicate spots
Oligonucleotide | median fluorescence
GAGGCCTAGCACGTGCTGCCTCCTGGCAGCACGTGCTAGGCCTCACACTC (5mC at 36) | 20600 a.u.
CACTTAGCACCGGATTTTGGTCCTCCAAAATCCGGTGCTAAGTGACACTC | 5450 a.u.
GAGGCCTCGCACGTGCTGCCTCCTGGCAGCACGTGCGAGGCCTCACACTC (5mC at 36) | 18200 a.u.
CACTCAGCACGTGATTTTGGTCCTCCAAAATCACGTGCTGAGTGACACTC | 27500 a.u.
CACTTAGCAGGTGATTTTGGTCCTCCAAAATCACCTGCTAAGTGACACTC (5mC at 35) | 4770 a.u.
GAGGCCTACGACGTGCTGCCTCCTGGCAGCACGTCGTAGGCCTCACACTC (5mC at 9) | 6300 a.u.
CACTTAGGACGTGATTTTGGTCCTCCAAAATCACGTCCTAAGTGACACTC (5mC at 37) | 5570 a.u.
GAGGCCTAGCACGAGCTGCCTCCTGGCAGCTCGTGCTAGGCCTCACACTC | 10100 a.u.
CACTGAGCACGTGATTTTGGTCCTCCAAAATCACGTGCTCAGTGACACTC | 29200 a.u.

Study 2 — method: RNA Bind-n-Seq; form: RNA; sample: in vitro; tested at: not given; baseline: input RNA pool; reading: higher = stronger binding
Target: RING finger protein unkempt homolog, zinc fingers 1-6, GST-SBP tag (UNK, Homo sapiens, UniProt Q9C0B0, residues 30-357)
Chain of UniProt Q9C0B0 (30-357, looked up): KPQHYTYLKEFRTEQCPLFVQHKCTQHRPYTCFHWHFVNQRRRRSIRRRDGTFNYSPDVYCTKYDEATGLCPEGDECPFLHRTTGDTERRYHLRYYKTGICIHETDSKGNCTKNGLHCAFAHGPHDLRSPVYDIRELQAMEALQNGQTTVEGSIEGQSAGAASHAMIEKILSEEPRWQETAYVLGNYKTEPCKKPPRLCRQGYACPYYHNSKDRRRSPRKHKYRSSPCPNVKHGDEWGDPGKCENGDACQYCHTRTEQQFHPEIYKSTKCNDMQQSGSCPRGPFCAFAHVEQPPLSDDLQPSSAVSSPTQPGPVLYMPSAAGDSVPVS
Setting: RNA with constant flanks, human and mouse sites, ends assumed
Constant ends, left off below: GGGAGUUCUACAGUCCGACGAUC … CAACAGAGGAUUGAGCAUCA
Oligonucleotide | bound/input enrichment
ACGCAGUUUCCCCGAUUUCCUUCUCUCAGCCUGAAGUUCUAGAUCCUUUCGGUUUCCUCCUUAGUCCCUCCAAGGUACUUAACCCCUUUUUGCAGUUUGGACUUUGAGAUUGUGAAUCUC | 0.391 ratio
CGGAGUCGGGAGGCUGAGUGUUCAUUCCAGCAUGUCGGAAGGGGAGUCCCAAACAGUAGUCAGCAGUGGCUCAGACCCAAAGGUAGAAUCCUCAUCUUUAGCUCCUGGCCUGACUUCUGU | 0.163 ratio
GCUGGGAGAAAUGUUGGAAAUGGUUUAAACACAUUAUCAGAUUCAUCUUGGAGGCAUAGUCAAGUUCCUAGAUCUUCAUCAAUGGUACUUGGAUCAUUUGGAACAGACUUAAUGAGAGAG | 0.356 ratio
GCACCAUUCAAGUUCGACAUGGAAUUGGAUGACUUGCCUAAGGAAAAGCUCAAAGAACUAAUUUUUGAAGAGACUGCUAGAUUCCAGCCAGGAUACAGAUCUUAAAUUUGUCAGGACAAG | 0.274 ratio
GCCAGCAAGCCGCAGACCAUUCAAGAAUCAACAGGUGGUAUAGUCGAAGUUUUACAUAAGGUAGAUUCAGAAGGAAUCUCACCAAACCGUACCAGUCACGCGGCACCUGCAGCCACGUCA | 0.25 ratio
GUAAUGCAUACUUUAGCAGCUUCACUUUCUGCUUGUAUUUAUCAGUGCCUUUGUGGUAGUCAUAACUACAGUUCAUUUCAGACGAAUCAGUUUACUGGAAUGGUAUAUCAGACAGUACUG | 0.219 ratio
UGCACUGUCCCCAGAUUUUUGCAGGCAGAAGAAACAAUGAAGUUAAAUGAAACCACAGAUUUUCAGGAUUUUGAAGGAGAAGAAACUAAUGAAGUUGAACAAUUUGUAAACAAUUCAUUU | 0.295 ratio
AAAAGACGACGAACUGGAGGCUCUCUGAGAGGGAAUGCUUCCUCAAGCCAGGUUGAUGAGGGACAGAUGAAUCGCGUGGUUGAGGAGGAUCCACAGCAGCAAGCGAGACAUCAAGAGGAG | 0.131 ratio
UAUUACUUCUUUUUUUUUCGAACUACACUUGGGCUCCUUUUUUUGUGCUCGACUUUUCCACCCUUUUUCCCUCCCUCCUGUGCUGCUGCUUUUUGAUCUCUUCGACUAAAAUUUUUUUAU | 1.22 ratio
AAGUUACAGAUUUUAGCCAGUCUUUGCUUUUAUACUUUUGUGAAAUUUAAUUUCUCUCUAUAGCACCUUCCUUUUUCGUUUUCAGUUAUCAAAAGUGACUUUGACCUCAUAAAAGAGUUG | 1.4 ratio
CUAAUCGCCUCACAAAAAUUCACAGACAAACGCAUUGGCUAUUUAGGAGCAAUGCUAUUAUUAGAUGAAAGACAAGAUGUGCAUCUUCUCAUGACCAACUGUAUCAAGAAUGAUCUUAAU | 9.56 ratio

Study 3 — method: protein binding microarray; form: double-stranded DNA, one strand shown; sample: in vitro; tested at: not given; baseline: not given; reading: higher = stronger binding
Target: Histone acetyltransferase KAT6A, winged helix 1, GST fusion (KAT6A, Homo sapiens, UniProt Q92794, residues 1-85)
Setting: 8-mer, flanks averaged, mean of 2 arrays, mostly near background
Residues (chain): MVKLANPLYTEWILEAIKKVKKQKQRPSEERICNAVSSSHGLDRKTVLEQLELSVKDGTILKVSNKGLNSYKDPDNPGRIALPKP
Oligonucleotide | E-score
AGGGACGA | -0.0246
ACGCTGGA | 0.115
ATGTATGG | 0.0406
AGAGCGAT | -0.199
ATCAGGTG | -0.0712
TATGATCA | -0.129
ACCGCTAT | 0.17
GCCAAAAC | -0.041
GTCTACAA | -0.101
GGTGGAAA | -0.145
AGTTAAAT | -0.0842
AGGGATAT | -0.212
GCGGCACC | 0.399
GGAATGCC | 0.139
ATGTGAAC | -0.0583
TCCTGCCA | -0.169
AGATAGCC | -0.0384
AGAAAGAG | -0.266
AATAACAC | 0.0692

Study 4 — target: CCNA2, cyclin fold, Cln2 fusion (human); method: yeast growth competition, sequencing; sample: yeast; setting: strong parent motif; baseline: not given; reading: higher = stronger binding
Parent: E2F1 docking peptide (human); PPVKRRLDLETDH
Variant | normalised enrichment score
T11N | 3.81
E10T | 4.35
R6K | 2.88
D12L | 4.18
V3C | 4.83
P2H | 3.86
T11F | 6.17
R5W | 0.519
K4Y | 1.62
P1C | 3.69
T11Q | 4.28
R5I | 0.0232
K4R | 5.64
T11A | 4.21
P1Y | 5.35
E10S | 4.09
R6A | 1.72
K4W | 1.54
V3L | 1.34
P1L | 5.97
V3Q | 0.701
K4L | 0.331
K4V | 2.49
V3N | 1.31
P2G | 4.43

Study 5 — method: DHFR PCA, deep sequencing; sample: yeast; together with: (+)-ABA 710 µM; baseline: wild-type fitted maximum; reading: higher = stronger binding
Target: ABI1, truncated, D143A, DHFR fusion (Arabidopsis thaliana)
Setting: methotrexate growth selection, single substitutions
Parent: PYL1, truncated, DHFR fusion (Arabidopsis thaliana); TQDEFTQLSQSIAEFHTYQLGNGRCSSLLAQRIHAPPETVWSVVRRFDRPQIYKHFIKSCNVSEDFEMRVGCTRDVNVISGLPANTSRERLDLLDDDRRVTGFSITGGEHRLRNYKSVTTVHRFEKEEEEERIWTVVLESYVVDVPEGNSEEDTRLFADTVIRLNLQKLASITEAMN; partner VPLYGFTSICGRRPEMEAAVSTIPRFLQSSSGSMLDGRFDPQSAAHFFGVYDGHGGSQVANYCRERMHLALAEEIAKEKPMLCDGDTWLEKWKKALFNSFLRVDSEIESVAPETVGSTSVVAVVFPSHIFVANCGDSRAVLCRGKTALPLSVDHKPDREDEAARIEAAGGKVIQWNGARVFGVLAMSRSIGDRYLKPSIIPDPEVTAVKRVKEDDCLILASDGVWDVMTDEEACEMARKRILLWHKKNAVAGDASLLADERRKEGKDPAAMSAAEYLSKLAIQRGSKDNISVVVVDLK
Variant | relative binding score [%]
V118N | 88.5
L8Y | 84.7
F103Q | -9.23
P37C | 96.6
Y141C | 36.7
G102D | 5.45
T120E | 43.7
I52Y | 102
S140W | 27.3
A35L | 49.3
G71N | 87.1
D3W | 98.9
L112V | 62.6
R99D | 19.9
T39F | 96.4
G108H | 53.3

Study 6 — method: RNA Bind-n-Seq; form: RNA; sample: in vitro; tested at: 365 nM; baseline: no-protein control; reading: higher = stronger binding
Target: RNA binding protein fox-1 homolog 2, RRM domain, GST-SBP tag (RBFOX2, Homo sapiens, UniProt O43251-10, residues 100-194)
Setting: natural RNA segment, single round, ends assumed
Constant ends, left off below: GGGAGUUCUACAGUCCGACGAUC … UGGAAUUCUCGGGUGCCAA
Residues (chain): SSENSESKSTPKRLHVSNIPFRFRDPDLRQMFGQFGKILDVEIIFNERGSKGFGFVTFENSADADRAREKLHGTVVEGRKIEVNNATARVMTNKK
Oligonucleotide | RBNS enrichment (R)
CUGAUGCUUUCUGCAUGUCAGCAGUCCAGGAGGAUGCUUUUUGUCUCUCUUUGCCUCCACUUUACAAAAGAUAAUAUGAUAGAGGCAACGUUUAUAACAGUCACAUUUAA | 5.63
UAAAUCACUUAUAGCUAUAUUUUACUACAAAAAUUCUGUAUAAAGAUAUAUUUAAAUAUUUUAGAGAAAUUUAAGUUACUCCUUAUGAAAUGUUUAAUUUCAGUUACUGU | 0.631
GACAGCAGUCUUUUUUUUUAAUUUAAAAAAAAAAAGAUAUAUUAACAGUUUUAGAAGUCAGUAGAAUAAAACCUUAAAGCGUUCUUAUAAUAUGGCAUCUUUCGAUUUCU | 0.537
CUCCAUUUUAAAUUUGAGUUUCCCUUUCGUUUUUACUCACCACCAAAGAAUCUCAAAUGUAAAAUUUUAUAUUGGGUUUGAACCACUGACGUGUCCAUUCUGAUAUAUGC | 0.504
GAGGGGGCAGGCUCAGCCAGCCCUUGGAGGCUCAGAGCAGCUGGCCCAGGCUCCAGCUCGCCUCCAGUGGAAGCCCGAGCGCCCUCAGAAACGACCCUGGCCAAUGUCAA | 0.354
GCAGGGCCUAAUCUAGCUGAGGUCCAGAAAUACAAACCUGGAACUUCAUAUGGACCAAGUGGCCACACACUGAAAAACCCGUAUAGCGACUCAGUGAAAUAAACAAGAGC | 0.314
AGAAAGUUCUAGAAAAUAGGAAAACGAAAAAUUUCAUUGAGAUGAGUAGUGCAUUUAAUUAUUUUUUAAAAAACUUUUUAAGUACUUGAAUUUUAUAUCAGGAAAACAAA | 0.718
GAAACCCCUAAUGUGUGUCCAUAUGAUCUUUCUGUACAUUCUAUUCUCUUACAAAUCUGUGCAUCAGGAAAAUAUGCAUACUUUCAAAUAGAACAGAGGUAUUUGCAACC | 0.512
CAAGUUCCCAUAAAGCAAACAGGGCUUCUACUUUGUCUGCUCGGUGACAGACAACCAAGUUUUCCUCCCAUUUUAAACAAUUACAGCUAAGCAAAACCAGGUUUAGAGGC | 0.293
UAUUCCAGCGAUGUGACUUUUUUCAGAAUAUUUCUUGGAAUCAUAUUCAGAGUCUGGGGCUGUGUGUUGAGCAGCCUUAAGGAUGCUAGACACUCAUUUAGUGCCCAGGG | 0.236
UUCUGGGACUUGAAAUCAAAUGUUUGGGAAUGGUGCCCUUGGAGGCAACCUCCCAUUUUAGAUGUUUAAAGGACCCUAUAUGUGGCAUUCCUUUCUUUAAACUAUAGGUA | 0.339
GCAGGCUUUAGAGGGAGAACCCAAAUUUUCAAUUAUGUUGGCUUUUUAUAAAGCUUGAGUUAUGUAAGAUUUAAAUAAAAGUUUGCUACCAAGAUGAUUGCCUUAUUGAA | 3.3

For quick reference, copied from above (study 5):
Variant | relative binding score [%]
Y141C | 36.7
G102D | 5.45
V118N | 88.5
A35L | 49.3
F103Q | -9.23
T39F | 96.4
